# Results collected from several papers.
# Values joined by “and” are separate records of one study, mostly repeats; a detail may differ. Numbers after ± are the reported error.
# SLC6A4: Sodium-dependent serotonin transporter (SLC6A4, Homo sapiens, UniProt P31645)
# UniProt P31645, sequence (whole entry, looked up): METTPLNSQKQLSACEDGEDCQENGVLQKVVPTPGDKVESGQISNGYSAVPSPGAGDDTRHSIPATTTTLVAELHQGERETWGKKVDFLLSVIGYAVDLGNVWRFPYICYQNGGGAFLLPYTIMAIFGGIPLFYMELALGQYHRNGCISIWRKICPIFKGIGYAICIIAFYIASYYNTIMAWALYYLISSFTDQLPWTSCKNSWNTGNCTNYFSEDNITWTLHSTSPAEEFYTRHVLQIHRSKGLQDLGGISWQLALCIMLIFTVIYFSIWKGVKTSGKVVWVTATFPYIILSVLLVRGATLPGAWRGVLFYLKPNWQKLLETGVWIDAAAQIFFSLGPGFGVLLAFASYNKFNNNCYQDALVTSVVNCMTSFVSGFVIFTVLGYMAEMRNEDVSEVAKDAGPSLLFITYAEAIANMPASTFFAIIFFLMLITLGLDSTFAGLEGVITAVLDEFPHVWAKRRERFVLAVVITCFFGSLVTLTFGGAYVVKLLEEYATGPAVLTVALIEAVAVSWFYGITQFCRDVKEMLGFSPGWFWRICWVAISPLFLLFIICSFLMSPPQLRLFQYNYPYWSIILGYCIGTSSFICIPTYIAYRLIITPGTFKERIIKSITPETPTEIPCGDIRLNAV
# OPRD1: Delta-type opioid receptor (OPRD1, Homo sapiens, UniProt P41143)
# UniProt P41143, sequence (whole entry, looked up): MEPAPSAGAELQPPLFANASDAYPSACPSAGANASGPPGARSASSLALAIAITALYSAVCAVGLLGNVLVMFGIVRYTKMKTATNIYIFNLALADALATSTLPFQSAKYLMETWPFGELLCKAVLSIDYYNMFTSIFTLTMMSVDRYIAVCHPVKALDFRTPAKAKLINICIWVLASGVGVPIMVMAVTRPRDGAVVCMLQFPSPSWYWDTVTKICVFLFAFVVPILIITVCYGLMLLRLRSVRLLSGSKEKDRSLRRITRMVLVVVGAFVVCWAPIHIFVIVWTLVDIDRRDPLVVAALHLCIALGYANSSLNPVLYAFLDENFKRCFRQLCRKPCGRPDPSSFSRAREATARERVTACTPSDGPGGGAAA
# HTR2C: 5-hydroxytryptamine receptor 2C (HTR2C, Homo sapiens, UniProt P28335)
# UniProt P28335, sequence (whole entry, looked up): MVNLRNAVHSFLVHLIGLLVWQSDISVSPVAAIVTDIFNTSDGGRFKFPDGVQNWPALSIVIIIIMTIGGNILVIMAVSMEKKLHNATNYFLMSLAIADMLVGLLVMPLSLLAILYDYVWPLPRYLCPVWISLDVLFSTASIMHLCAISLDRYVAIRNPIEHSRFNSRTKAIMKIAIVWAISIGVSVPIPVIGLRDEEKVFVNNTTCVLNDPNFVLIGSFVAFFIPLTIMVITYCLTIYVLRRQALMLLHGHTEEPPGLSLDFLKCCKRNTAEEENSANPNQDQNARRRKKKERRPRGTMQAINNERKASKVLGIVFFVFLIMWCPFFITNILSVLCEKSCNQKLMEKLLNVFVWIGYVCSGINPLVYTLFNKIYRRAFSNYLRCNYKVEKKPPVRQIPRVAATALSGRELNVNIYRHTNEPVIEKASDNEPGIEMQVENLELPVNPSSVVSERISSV
# UniProt P08588, sequence (whole entry, looked up): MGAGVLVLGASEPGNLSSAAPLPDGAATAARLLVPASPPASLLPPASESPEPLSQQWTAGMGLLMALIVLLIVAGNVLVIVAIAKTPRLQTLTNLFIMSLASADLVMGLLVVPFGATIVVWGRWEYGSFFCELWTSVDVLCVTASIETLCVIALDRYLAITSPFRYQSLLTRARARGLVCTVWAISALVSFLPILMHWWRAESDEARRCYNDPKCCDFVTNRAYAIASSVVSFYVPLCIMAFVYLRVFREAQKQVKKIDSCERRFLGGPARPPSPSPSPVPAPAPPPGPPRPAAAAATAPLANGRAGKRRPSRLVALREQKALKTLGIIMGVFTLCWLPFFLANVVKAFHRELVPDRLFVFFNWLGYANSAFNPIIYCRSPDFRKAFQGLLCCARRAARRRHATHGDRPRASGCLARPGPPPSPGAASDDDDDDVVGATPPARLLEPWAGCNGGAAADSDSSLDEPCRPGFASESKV
# UniProt P9WHE9, sequence (whole entry, looked up): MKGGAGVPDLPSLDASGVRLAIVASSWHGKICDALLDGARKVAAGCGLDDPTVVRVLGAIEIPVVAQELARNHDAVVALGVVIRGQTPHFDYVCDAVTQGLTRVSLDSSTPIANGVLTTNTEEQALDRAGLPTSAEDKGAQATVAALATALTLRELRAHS
# UniProt P35363, sequence (whole entry, looked up): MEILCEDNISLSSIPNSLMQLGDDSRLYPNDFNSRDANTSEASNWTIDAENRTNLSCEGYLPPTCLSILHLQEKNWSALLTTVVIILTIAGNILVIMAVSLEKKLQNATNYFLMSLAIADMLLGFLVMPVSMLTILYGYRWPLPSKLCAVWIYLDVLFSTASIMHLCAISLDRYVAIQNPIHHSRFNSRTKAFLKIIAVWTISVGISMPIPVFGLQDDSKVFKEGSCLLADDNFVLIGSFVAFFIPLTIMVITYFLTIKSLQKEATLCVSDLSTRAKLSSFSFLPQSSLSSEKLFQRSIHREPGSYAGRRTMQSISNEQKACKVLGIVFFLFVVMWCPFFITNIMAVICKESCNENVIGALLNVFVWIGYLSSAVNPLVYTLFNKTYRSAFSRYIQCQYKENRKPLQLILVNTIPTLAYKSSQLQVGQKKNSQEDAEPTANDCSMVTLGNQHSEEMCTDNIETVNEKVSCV
# UniProt P28223, sequence (whole entry, looked up): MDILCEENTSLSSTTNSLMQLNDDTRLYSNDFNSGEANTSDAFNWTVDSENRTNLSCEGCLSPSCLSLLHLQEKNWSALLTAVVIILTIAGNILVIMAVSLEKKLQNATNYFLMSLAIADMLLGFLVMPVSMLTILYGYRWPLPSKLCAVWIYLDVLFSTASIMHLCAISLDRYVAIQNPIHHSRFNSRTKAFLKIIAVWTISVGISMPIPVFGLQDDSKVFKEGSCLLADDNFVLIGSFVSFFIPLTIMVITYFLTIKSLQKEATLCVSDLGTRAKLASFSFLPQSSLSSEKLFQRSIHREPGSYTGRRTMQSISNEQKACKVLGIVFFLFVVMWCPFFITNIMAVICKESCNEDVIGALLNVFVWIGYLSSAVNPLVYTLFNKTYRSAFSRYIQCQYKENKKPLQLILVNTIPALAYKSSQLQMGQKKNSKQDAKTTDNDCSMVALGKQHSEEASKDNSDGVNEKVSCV
# UniProt Q9QYJ6, sequence (whole entry, looked up): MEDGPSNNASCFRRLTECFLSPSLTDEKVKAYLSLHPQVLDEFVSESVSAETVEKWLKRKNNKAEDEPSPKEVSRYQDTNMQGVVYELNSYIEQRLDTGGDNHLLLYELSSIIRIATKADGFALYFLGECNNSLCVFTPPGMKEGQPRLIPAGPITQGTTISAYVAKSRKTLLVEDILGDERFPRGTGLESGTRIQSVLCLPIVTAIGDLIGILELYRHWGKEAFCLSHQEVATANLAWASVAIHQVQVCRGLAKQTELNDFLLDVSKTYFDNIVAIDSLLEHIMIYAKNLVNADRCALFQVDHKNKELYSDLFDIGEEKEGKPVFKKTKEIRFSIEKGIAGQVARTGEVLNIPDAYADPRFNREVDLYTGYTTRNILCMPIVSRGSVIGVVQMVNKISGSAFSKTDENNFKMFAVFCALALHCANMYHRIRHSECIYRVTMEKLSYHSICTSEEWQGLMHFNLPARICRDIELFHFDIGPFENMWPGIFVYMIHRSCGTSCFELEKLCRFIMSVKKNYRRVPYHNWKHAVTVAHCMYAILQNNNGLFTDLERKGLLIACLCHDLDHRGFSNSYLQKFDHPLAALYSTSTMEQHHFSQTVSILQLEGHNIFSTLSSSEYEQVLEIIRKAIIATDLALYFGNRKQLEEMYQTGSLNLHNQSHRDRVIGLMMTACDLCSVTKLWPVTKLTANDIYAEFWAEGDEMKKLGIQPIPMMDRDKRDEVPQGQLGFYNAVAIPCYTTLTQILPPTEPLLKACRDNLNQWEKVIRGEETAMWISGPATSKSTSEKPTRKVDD
SMILES,target,assay,system,conditions,Ki
CCN(C(=O)[C@@H]1C=C2c3cccc4[nH]cc(c34)C[C@H]2N(C)C1)C1CC1,"ADRB1 (Homo sapiens, UniProt P08588)",,,,> 10 µM
CCCC(NC)C(=O)c1ccc(Cl)cc1 (stereo not shown),SLC6A4,"ligand displacement, radioligand",,cell membranes,3.85 µM
O=C(N[C@@H]1CC[C@@]2(O)[C@H]3Cc4cccc5c4[C@@]2(CCN3CC2CC2)[C@H]1O5)c1ccnc(Cl)c1,OPRD1,"ligand displacement, radioligand",,cell membranes,2.12 µM
NC(=O)c1cccnc1,Halyomorpha halys Nan-Iav,,,,108 µM
N#Cc1cc(C(=O)N[C@@H]2CC[C@@]3(O)[C@H]4Cc5cccc6c5[C@@]3(CCN4CC3CC3)[C@H]2O6)ccn1,OPRD1,"ligand displacement, radioligand",,cell membranes,3.38 µM
COc1ccc(OC)c(CCNCc2ccccc2OC)c1,HTR2C,"ligand displacement, radioligand",,,0.0164 µM and 0.016 to 0.019 µM
COc1cc(C(=O)N[C@@H]2CC[C@@]3(O)[C@H]4Cc5cccc6c5[C@@]3(CCN4CC3CC3)[C@H]2O6)ccn1,OPRD1,"ligand displacement, radioligand",,cell membranes,5.9 µM
COc1cc([N+](=O)[O-])c(OC)cc1CCNCc1ccccc1OC,"HTR2A (Homo sapiens, UniProt P28223)","ligand displacement, radioligand",,,0.000144 µM
Cc1cc(C(=O)N[C@@H]2CC[C@@]3(O)[C@H]4Cc5cccc6c5[C@@]3(CCN4CC3CC3)[C@H]2O6)ccn1,OPRD1,"ligand displacement, radioligand",,cell membranes,3.65 µM
COc1cc(CC(C)N)c(OC)cc1I (racemic),"Htr2a (Mus musculus, UniProt P35363)",[3H]ketanserin competition binding,mouse striatum membranes,together with: quinpirole 10 µM and raclopride,0.27 µM
CCc1cc(OC)c(CCNCc2ccccc2OC)cc1OC,HTR2C,"ligand displacement, radioligand",,,0.000311 µM
O=C(N[C@@H]1CC[C@@]2(O)[C@H]3Cc4cccc5c4[C@@]2(CCN3CC2CC2)[C@H]1O5)c1ccnc(Br)c1,OPRD1,"ligand displacement, radioligand",,cell membranes,2.09 µM
CNC(C)C(=O)c1cccc(C)c1 (stereo not shown),SLC6A4,"ligand displacement, radioligand",,cell membranes,7.9 µM
CCC(=O)Nc1c(SC[C@H](O)[C@H](O)[C@H](O)CO)[nH]c(=O)[nH]c1=O,"ribH (Mycobacterium tuberculosis, UniProt P9WHE9)",inhibitor,,"pH 7.0, together with: substrate 1 varied, other substrate 2 constant",128 ± 31 µM
CCC(C(=O)c1ccc2c(c1)OCO2)N(C)C (stereo not shown),SLC6A4,"ligand displacement, radioligand",,cell membranes,> 10 µM
CC(C)=CCN1CCC2(C)c3cc(O)ccc3CC1C2C (stereo not shown),"Pde10a (Rattus norvegicus, UniProt Q9QYJ6)","ligand displacement, radioligand",,cell membranes,> 1 µM

# Some of these lines once more:
SMILES,target,assay,system,conditions,Ki
CCc1cc(OC)c(CCNCc2ccccc2OC)cc1OC,HTR2C,"ligand displacement, radioligand",,,0.000311 µM
O=C(N[C@@H]1CC[C@@]2(O)[C@H]3Cc4cccc5c4[C@@]2(CCN3CC2CC2)[C@H]1O5)c1ccnc(Br)c1,OPRD1,"ligand displacement, radioligand",,cell membranes,2.09 µM
